Results of several laboratories.
A part holds a random share of what one study measured.

Sample 1 — method: protein binding microarray; molecule type: double-stranded DNA, one strand shown; sample: in vitro; tested at: not given; baseline: not given; direction: higher = stronger binding
Target: Histone acetyltransferase KAT6A, winged helix 2, GST fusion (KAT6A, Homo sapiens, UniProt Q92794, residues 85-181)
Notes: 8-mer, flanks averaged, mean of 2 arrays, mostly near background
Residues (chain): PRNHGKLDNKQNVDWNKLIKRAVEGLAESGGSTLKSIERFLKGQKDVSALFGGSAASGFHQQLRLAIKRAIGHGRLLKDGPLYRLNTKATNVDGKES
Sequence	E-score
CCCCCGTC	-0.0697
CTGTCGAC	-0.0715
ATGTCATG	0.0121
AACTCAAC	0.0442
AAGACCCC	-0.107
ATGCCTAC	-0.12
CTATATCA	-0.12
GCGCCCAC	0.189
AACTGTAC	-0.2

Sample 2 — method: protein-binding microarray; molecule type: double-stranded DNA, one strand shown; sample: in vitro; tested at: 940 nM top; notes: 60-bp whole probe; added: salmon DNA 0.4 mg/ml; baseline: random background probes; direction: higher = stronger binding; all sequences stand within: GCCTAGCAC … GTCTTGATTCGCTTGACGCTGCTG
Target: Interferon regulatory factor 5, full length, phosphomimetic (IRF5, Homo sapiens, UniProt Q13568-2, residues 1-514, S451D/S453D/S456D/S462D)
Sequence	fitted relative affinity
TCAACTTTCCATTTCTGACTGTGCTAG	1.25 z-score
GACGGTATCGGTATAGGGACGTGCTAG	8.33 z-score
TCAGCTCTGTGCTTTCCTACTGTGCTA	0.0283 z-score
TTAGATATCAGTCTCGATTTGTGCTAG	2.76 z-score
GACGGACTGGGGATTCGGGACGTGCTA	0.0219 z-score
TTAGAGCTCAGTATCGATTAGTGCTAG	4.36 z-score
CTAATTCTCTTTTCACTTTCGTGCTAG	2.64 z-score
TTAGGTTTCGGGTTTCGCTTAGTGCTA	9.99 z-score
AATATGTTCCCTATATAAGGGTGCTAG	0.224 z-score

Sample 3 — method: aptamer microarray, sandwich; molecule type: DNA with 2'F-ANA; sample: in vitro; tested at: 200 nM; added: Cy3 exosite-II aptamer, 400 nM; direction: higher = stronger binding; sequence: GGTTGGTGTGGTTGG
Target: Prothrombin, mature alpha-thrombin (F2, Homo sapiens, UniProt P00734)
Notes: whole 15-mer aptamer, many near background
Modification	mean fluorescence intensity [a.u.]
2'F-ANA at 7 10 11 12 13 14 15	108
2'F-ANA at 1 2 3 5 6 8 10 13	53.9
2'F-ANA at 2 3 4 5 6 7 9 11 12 13 14	71.5
2'F-ANA at 5 7 8 13	59.9
2'F-ANA at 1 4 5 6 8 9 10 11 12 13 14	69.4
2'F-ANA at 1 5 7 8 9 10 11 12 13 15	48.7
2'F-ANA at 1 2 3 5 6 7 10 11 15	173
2'F-ANA at 1 3 4 5 11 12 13	156
2'F-ANA at 3 4 5 7 8 9 10 11 12 13	58.5
2'F-ANA at 2 3 6 7 11 12 14 15	419
2'F-ANA at 2 6 7 8 10 11 13 15	101
2'F-ANA at 2 7 10 11 12 13 14	87.3
2'F-ANA at 5 6 7 9 10 11 15	62.3
2'F-ANA at 1 2 6 8 14 15	58.9
2'F-ANA at 2 3 6 7 8 10 12	445

Other studies, line by line
Molecule	target	test	test system	conditions	how to read	quantity	result
PhoQ, residues 284 288 289 292 302 303 SSTLLI	PhoP, residues 12 14 15 18 19 AQCLL (Escherichia coli, UniProt P23836)	Sort-seq, refers to: YFP reporter	E. coli	PhoQ-PhoP variant library, added: 10 µM Mg2+	baseline: high Mg2+ state, higher = stronger signaling	fold induction	5.42

A few entries again (sample 1):
Sequence	E-score
CCCCCGTC	-0.0697
CTGTCGAC	-0.0715
ATGTCATG	0.0121
AACTCAAC	0.0442
